Assay results from different studies.
Each numbered part is a random draw from the data of one study; scales do not carry over between parts. Changes are numbered by the printed parent chain.

Block 1
Target: Histone acetyltransferase KAT6A, winged helix 1, GST fusion (KAT6A, Homo sapiens, UniProt Q92794, residues 1-85)
Method: protein binding microarray
Form: double-stranded DNA, one strand shown
Sample: in vitro
Tested at: not given
Setting: 8-mer, flanks averaged, mean of 2 arrays, mostly near background
Reference: not given
Direction: higher = stronger binding
Target sequence (chain): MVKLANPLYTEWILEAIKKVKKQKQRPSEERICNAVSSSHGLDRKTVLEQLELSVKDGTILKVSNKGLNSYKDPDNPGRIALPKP
For `AGGCTCGA`, the E-score was -0.113.
For `ACTCTCCA`, the E-score was -0.237.
With `AGACAGTG` the E-score was -0.101.
`GAACCTAC` gave an E-score of -0.177.
`ATTGGTTA` gave an E-score of -0.246.
With `ACTGTATG` the E-score was -0.14.
The E-score of `GGGATCTA` is reported as -0.118.
For `GCAACCTA`, the E-score was -0.142.
With `CACGAATG` the E-score was -0.21.
`CGCTGAGA` gave an E-score of 0.142.
With `AAATCATA` the E-score was -0.0478.
With `ACAACCAT` the E-score was -0.114.
For `ACAATATG`, the E-score was -0.0757.
`CACGGGCG` has an E-score of 0.386.
`ATATTTAA` gave an E-score of -0.106.
The E-score of `CTTCTGGA` is reported as -0.192.
For `CGGCATCA`, the E-score was 0.332.
For `ATGATACC`, the E-score was -0.142.
With `CGTCCCGC` the E-score was 0.407.
The E-score of `GCGATAAA` is reported as 0.0461.
With `AGTTATAC` the E-score was 0.0814.
`GGGAGCAC` gave an E-score of -0.117.
With `GTTGGGGA` the E-score was -0.201.

Block 2
Target: RNA binding protein fox-1 homolog 2, RRM domain, GST-SBP tag (RBFOX2, Homo sapiens, UniProt O43251-10, residues 100-194)
Method: RNA Bind-n-Seq
Form: RNA
Sample: in vitro
Tested at: 365 nM
Setting: natural RNA segment, single round, ends assumed
Reference: no-protein control
Direction: higher = stronger binding
`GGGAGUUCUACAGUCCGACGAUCAUUUUUAGUCAAAAGUGCUUGGAAUAAUGGAAUGGUUAGCAUUCUUUGAAAGAGUAUCUAAAAAGUUUAUAAAUAUUUGAACUAUCACACAAAGGUUGAUCUCUAAAAAAUGGAAUUCUCGGGUGCCAA` — result for “RBNS enrichment (R)”: 0.536.
Under “RBNS enrichment (R)”, `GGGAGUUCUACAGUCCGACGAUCUUCACAAAAAUAGUCCUUUGUCAUUACAUUAUUUACUCAUGUGUUUGUACAUUUUUGUAUGUUAAUUUAUGAAUGAUUUUUUCAGUAAAAAAUACAUAUUCAAGAACCAAUGGAAUUCUCGGGUGCCAA` is recorded as 0.708.
`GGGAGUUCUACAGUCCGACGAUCACUGAGACACAUGAAAUAAGAUAAAUCUUUUUUUUAAAUCUAAAAUGGAAGGCUACUAGGAGCCACUACACUAACCUUUCUUCAUGCAUAAAUCCAAUGAGUACUACCCCUGGAAUUCUCGGGUGCCAA` — result for “RBNS enrichment (R)”: 0.556.
Under “RBNS enrichment (R)”, `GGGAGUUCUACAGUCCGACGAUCUUGACACUGAGGGAAGUCCUAUCUGUCAGUCCUGACCACUUAAGCCAGGACCCCAUGCUUCCUUUACUCUGUCUCCUCAUCUCUGUACCUCCCCUGACACCCCAGUCCUGUGGAAUUCUCGGGUGCCAA` is recorded as 0.504.
`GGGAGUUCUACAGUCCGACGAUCUCUAGAUUUCUGGAGUUAUGUUCCCCACAUCCAAAGCCAGUGUCUACAUACAGCUGCCAUGCCCUUUCUGAACAAAGGCUGGAGUUGUCCAAUUGCAGUUCUUCUUCGCAUGGAAUUCUCGGGUGCCAA` — result for “RBNS enrichment (R)”: 0.686.
`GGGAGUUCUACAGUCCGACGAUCAAGUGCUGGGAUUACAGGAGUGAGCCACUGUGCCUGGCCUAUCCCACUUGGUUUUUGACUGAAGGGGAAGUGUAGAAAUAUAUUGAUUUGUGAUUUCUGGUGUCACCUGUUGGAAUUCUCGGGUGCCAA` — result for “RBNS enrichment (R)”: 1.34.
`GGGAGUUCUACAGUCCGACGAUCAAUUGUUGUCUUAACUAUGACUAGACAUGUUAUACAGCCAUUUAUCUUGUACAACUGAGAAGAAUCAUACUUUGACCUACCUUGUAGAGAUGUGAGGAUUUAGAUGUUUGUGGAAUUCUCGGGUGCCAA`: “RBNS enrichment (R)” 0.815.
For `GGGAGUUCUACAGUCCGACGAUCUCCCUCUCUCCGUGCAGUAGCUGUGUGUCCGAGGUCAGUGUGCGGAAUCACAGCCAAGGACGUGAAGAGAUGUACGGGGGAAAGAGAAGCUGGGGAUUGGAUGAAAGUCAUGGAAUUCUCGGGUGCCAA`, “RBNS enrichment (R)” read 0.439.
For `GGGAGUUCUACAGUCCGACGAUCUAGAGGGAUGUGUGACGGAAUACAGUAUUAGGGUUCACCAUAGCAGACUCUGCGCUUUAUCUGUCUAUGGUGAAGGAUAGGGCGCAAUCACUUUAAUUGUAAUGAUAGAUUGGAAUUCUCGGGUGCCAA`, “RBNS enrichment (R)” read 0.438.
`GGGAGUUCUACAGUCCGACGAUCUAUUUUUCCCUCUCUGGUGAUAAGGUUUGUACAGACUGGUUUGGUAAAUGCUAAAUUUUUGUCUUUUGCCUUUUUAAAGGAAUUGUUACCAUUGGAAUUGAGGGUAUGUAUGGAAUUCUCGGGUGCCAA` — result for “RBNS enrichment (R)”: 1.31.
For `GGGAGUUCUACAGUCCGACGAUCUACUCUGGAAAGUGUGGGGAUGGAGAGGAUGGUGCAUUUCCAGUGCUUCCUUACCUGUCAAUAACAAUGGUGGCCACCUGGGUCCCAGCACUUGGCUGGUGGAGAGAUUUUGGAAUUCUCGGGUGCCAA`, “RBNS enrichment (R)” read 0.39.
For `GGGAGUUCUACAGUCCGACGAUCCAACUUGUCUUUUCAGCCGGCUGACCUGCAGCCUGUACAGCUCUGAAGCAUCUUUAAAUACGAUAGAAAAUAAGCUACUCAAGAAGCUGGUCUGUGUCCUUUUGCCUUAGUGGAAUUCUCGGGUGCCAA`, “RBNS enrichment (R)” read 0.454.

Block 3
Target: CCNB2, cyclin fold, Cln2 fusion (human)
Method: yeast growth competition, sequencing
Sample: yeast
Setting: weak parent motif
Reference: not given
Direction: higher = stronger binding
Parent: ASZ1 docking peptide (human); GFGFLLFICKLTF; partner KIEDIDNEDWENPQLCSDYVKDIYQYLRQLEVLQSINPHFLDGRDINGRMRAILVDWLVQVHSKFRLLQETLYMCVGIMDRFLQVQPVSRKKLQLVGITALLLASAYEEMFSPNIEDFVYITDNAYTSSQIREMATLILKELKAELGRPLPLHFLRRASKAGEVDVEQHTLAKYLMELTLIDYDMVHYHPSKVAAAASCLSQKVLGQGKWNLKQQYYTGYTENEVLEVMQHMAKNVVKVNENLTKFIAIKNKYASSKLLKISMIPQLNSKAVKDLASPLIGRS
For `F13A`, “normalised enrichment score” read 0.415.
`F2A` — result for “normalised enrichment score”: 0.437.
`C9A`: “normalised enrichment score” 0.649.
Under “normalised enrichment score”, `G1A` is recorded as 0.633.
`L5A` — result for “normalised enrichment score”: 0.284.
Under “normalised enrichment score”, `K10A` is recorded as 0.589.
Under “normalised enrichment score”, `F7A` is recorded as 0.0717.

Block 4
Target: ABI1, truncated, D143A, DHFR fusion (Arabidopsis thaliana)
Method: DHFR PCA, deep sequencing
Sample: yeast
Setting: methotrexate growth selection, single substitutions
With: (+)-ABA 200 µM
Reference: wild-type fitted maximum
Direction: higher = stronger binding
Parent: PYL1, truncated, DHFR fusion (Arabidopsis thaliana); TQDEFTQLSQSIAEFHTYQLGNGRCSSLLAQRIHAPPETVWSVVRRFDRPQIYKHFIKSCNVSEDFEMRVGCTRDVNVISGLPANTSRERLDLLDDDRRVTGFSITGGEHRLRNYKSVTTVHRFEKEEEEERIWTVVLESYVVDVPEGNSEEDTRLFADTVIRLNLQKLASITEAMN; partner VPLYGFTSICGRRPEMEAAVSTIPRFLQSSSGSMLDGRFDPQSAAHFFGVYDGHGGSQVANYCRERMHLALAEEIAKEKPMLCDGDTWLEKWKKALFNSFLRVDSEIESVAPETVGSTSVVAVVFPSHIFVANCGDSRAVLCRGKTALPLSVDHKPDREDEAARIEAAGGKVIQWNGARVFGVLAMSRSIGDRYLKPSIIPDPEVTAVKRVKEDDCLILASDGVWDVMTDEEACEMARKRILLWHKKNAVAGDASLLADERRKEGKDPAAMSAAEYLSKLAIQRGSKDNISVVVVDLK
`R69Q` — result for “relative binding score”: 98.2%.
`T6P` — result for “relative binding score”: 105%.
For `H122L`, “relative binding score” read 50.9%.
For `I52S`, “relative binding score” read 98.9%.
For `E147L`, “relative binding score” read 95.5%.
`V43F`: “relative binding score” 92%.
`S26C` — result for “relative binding score”: 97.9%.
For `I133T`, “relative binding score” read 109%.
`R49W` — result for “relative binding score”: 51.1%.
Under “relative binding score”, `S9W` is recorded as 85.2%.
`L169K`: “relative binding score” 0.504%.
Under “relative binding score”, `V137Q` is recorded as 4.88%.
Under “relative binding score”, `V143I` is recorded as 45.5%.
Under “relative binding score”, `D3H` is recorded as 91%.
`I33A`: “relative binding score” 45.9%.
`I33D` — result for “relative binding score”: -20.5%.
For `S63D`, “relative binding score” read 102%.
`G21N` — result for “relative binding score”: 99.7%.
`H34W` — result for “relative binding score”: 83.7%.
`R69G` — result for “relative binding score”: 96.5%.
`E174I` — result for “relative binding score”: 72.3%.
`S140L`: “relative binding score” 4.4%.
`D3A`: “relative binding score” 96.6%.

Block 5
Target: CREB3L2, bZIP domain (human)
Method: DHFR protein complementation
Sample: yeast
Setting: single substitutions, most at no-binding floor
Reference: wild-type JUN-FOS pair
Direction: higher = stronger binding
Parent: JUN, bZIP domain (human); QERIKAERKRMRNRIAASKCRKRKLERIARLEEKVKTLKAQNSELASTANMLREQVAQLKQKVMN; partner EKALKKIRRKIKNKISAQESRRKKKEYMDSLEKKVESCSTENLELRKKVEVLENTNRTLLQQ
With `K34A` the binding fitness was -1.51 natural log.
`N42H` has a binding fitness of -1.5 natural log.
`R53G` gave a binding fitness of -1.53 natural log.
`Q55V` gave a binding fitness of -1.49 natural log.
`I28K` has a binding fitness of -1.21 natural log.
For `K36C`, the binding fitness was -1.49 natural log.
For `E32D`, the binding fitness was -1.53 natural log.
For `A49H`, the binding fitness was -1.52 natural log.
`A46H` gave a binding fitness of -1.55 natural log.
For `K36I`, the binding fitness was -1.59 natural log.
The binding fitness of `A46C` is reported as -1.54 natural log.
The binding fitness of `R53I` is reported as -1.54 natural log.
`I28S` gave a binding fitness of -1.3 natural log.
The binding fitness of `K34W` is reported as -1.55 natural log.
`L38P` has a binding fitness of -1.5 natural log.
The binding fitness of `N42A` is reported as -1.48 natural log.
For `T37I`, the binding fitness was -1.53 natural log.
`R53S` gave a binding fitness of -1.45 natural log.
`V35R` has a binding fitness of -1.55 natural log.
For `N42C`, the binding fitness was -1.49 natural log.
For `N42D`, the binding fitness was -1.55 natural log.
With `R53L` the binding fitness was -1.45 natural log.
